Assay results of several laboratories.
Numbered parts are unrelated; each lists some results of a single study.

Sample 1
Target: Interferon regulatory factor 5, full length, phosphomimetic (IRF5, Homo sapiens, UniProt Q13568-2, residues 1-514, K96S/S451D/S453D/S456D/S462D)
Technique: protein-binding microarray
Molecule type: double-stranded DNA, one strand shown
Medium: in vitro
Concentration: 250 nM
Setting: 60-bp whole probe
Together with: salmon DNA 0.4 mg/ml
Baseline: random background probes
Direction: higher = stronger binding
Measurement: log fluorescence
Constant ends, left off below: GCCTAGCAC … GTCTTGATTCGCTTGACGCTGCTG
GACGGTTTCGGACTGGGGAGGTGCTAG: 4.05 z-score
AGGACTCTGGAGGTTGAGAAAGTGCTA: -0.719 z-score
GACGATTCCAGTTACGAGACGTGCTAG: 0.0136 z-score
TCACCTTGGAAGTATGACACTGTGCTA: -0.331 z-score
TCAACTATTGCTTCCTCACTGTGCTAG: 0.83 z-score
TTAGGTACCCTACTGCTTTAGTGCTAG: -0.44 z-score

Sample 2
Target: RNA binding protein fox-1 homolog 2, RRM domain, GST-SBP tag (RBFOX2, Homo sapiens, UniProt O43251-10, residues 100-194)
Technique: RNA Bind-n-Seq
Molecule type: RNA
Medium: in vitro
Concentration: 365 nM
Setting: natural RNA segment, single round, ends assumed
Baseline: no-protein control
Direction: higher = stronger binding
Measurement: RBNS enrichment (R)
Constant ends, left off below: GGGAGUUCUACAGUCCGACGAUC … UGGAAUUCUCGGGUGCCAA
Residues (chain): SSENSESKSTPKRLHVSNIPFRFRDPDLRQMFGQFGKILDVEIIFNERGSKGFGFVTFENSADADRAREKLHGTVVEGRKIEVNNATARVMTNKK
GCAGAGCUGCCCUGGAGUACUGACUUGUCUCUCCCUCCUUUGUCAAGGUCCAUGUUUUUCUGGCUCUUCCUGCACACUCAUCCCUAGAUUAUGAGCGUUAAUGUACGAAA: 0.408
AAUAUGCCCAAGAUUGCAAAUGCAUCCAGUCAGUAAUACCACUGUCUGUAUGUGGAAGACAUGUUCCCAUGGAUCAUAUGUGAAGAUGUCAAUAAGCUUGCAUUAAGCCA: 0.304
GGAGCUUAGACGCCACAUCAGGGUAAUGAGGGGGAUCACGGAGAAUCAAAACCCUCAGAGGGUCCUGAUGAGCAGAGAGUCUUUCCCUGGCCUUUCGAGCUUCAGAGAUG: 0.632
AAAGGCAGUCUCUGUGUCUGGAGCUUCAAAGAGACAGGCAGACCUGCACUAAUUCCCUUCUUCCUCUAGCAGACUGCCUUGGGAAGGACCUUCAGUCCAGGACAGACCCU: 0.181
ACUUGUCUUGAAAACUGUGCAACUUUUUAAAGUAAAUUAUUAAGCAGACUGGAAAAGUGAUGUAUUUUCAUAGUGACCUGUGUUUCACUUAAUGUUUCUUAGAGCCAAGU: 0.291

Sample 3
Target: Sal-like protein 4, full length isoform B (SALL4, Homo sapiens, UniProt Q9UJQ4-2, residues 1-616)
Technique: universal PBM
Molecule type: double-stranded DNA, one strand shown
Medium: in vitro
Concentration: not given
Setting: 8-mer, flanks averaged, mean of replicates
Direction: higher = stronger binding
Measurement: E-score
GTCGCTAA: 0.0283
GTCCATTA: 0.147
AAATTGAA: 0.299
CACTGGGC: -0.266
ATGGGACA: -0.145
GCTGCCAC: -0.259
CACGTCCG: -0.227
ACCACTCC: -0.116

Other studies, line by line
PhoQ, residues 284 288 289 292 302 303 SCCLKL  fold induction (PhoP, residues 12 14 15 18 19 AWHSL (Escherichia coli, UniProt P23836); Sort-seq, measured: YFP reporter; E. coli; PhoQ-PhoP variant library, together with: 10 µM Mg2+; baseline: high Mg2+ state, higher = stronger signaling): 3.86
